Measurements collected from several papers.
Each numbered part is a random draw from the data of one study; scales do not carry over between parts.
Sequence of UniProt Q8N752 (whole entry, looked up): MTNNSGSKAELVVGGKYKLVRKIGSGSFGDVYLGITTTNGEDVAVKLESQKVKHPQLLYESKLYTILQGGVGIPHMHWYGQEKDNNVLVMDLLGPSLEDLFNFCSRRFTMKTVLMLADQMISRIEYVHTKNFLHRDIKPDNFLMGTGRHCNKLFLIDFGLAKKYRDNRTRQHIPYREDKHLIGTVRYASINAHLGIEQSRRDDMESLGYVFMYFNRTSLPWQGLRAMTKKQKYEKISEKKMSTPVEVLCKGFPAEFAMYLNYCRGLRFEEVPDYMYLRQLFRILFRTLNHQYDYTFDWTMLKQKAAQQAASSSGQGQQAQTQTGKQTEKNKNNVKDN
Sequence of UniProt Q96L34 (whole entry, looked up): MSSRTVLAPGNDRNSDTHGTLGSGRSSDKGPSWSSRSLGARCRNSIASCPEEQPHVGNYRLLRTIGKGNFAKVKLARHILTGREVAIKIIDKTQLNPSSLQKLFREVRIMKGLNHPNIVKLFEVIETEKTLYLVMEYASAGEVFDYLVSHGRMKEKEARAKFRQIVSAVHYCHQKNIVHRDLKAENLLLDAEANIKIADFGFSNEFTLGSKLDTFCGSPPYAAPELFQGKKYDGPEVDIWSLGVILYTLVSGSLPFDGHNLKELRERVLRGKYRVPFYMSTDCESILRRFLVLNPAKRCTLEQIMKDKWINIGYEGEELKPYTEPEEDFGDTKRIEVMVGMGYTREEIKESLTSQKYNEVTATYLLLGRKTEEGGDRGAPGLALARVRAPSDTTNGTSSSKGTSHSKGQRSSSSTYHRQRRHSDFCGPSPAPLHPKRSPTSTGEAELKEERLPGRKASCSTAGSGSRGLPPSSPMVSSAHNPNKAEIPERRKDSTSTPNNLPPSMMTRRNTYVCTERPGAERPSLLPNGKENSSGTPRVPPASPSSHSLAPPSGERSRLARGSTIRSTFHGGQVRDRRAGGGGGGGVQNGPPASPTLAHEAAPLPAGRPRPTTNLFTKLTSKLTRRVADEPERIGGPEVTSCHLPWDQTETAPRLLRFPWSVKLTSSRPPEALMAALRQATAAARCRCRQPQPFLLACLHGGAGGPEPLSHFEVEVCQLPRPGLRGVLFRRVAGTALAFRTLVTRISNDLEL
Sequence of UniProt P45985 (whole entry, looked up): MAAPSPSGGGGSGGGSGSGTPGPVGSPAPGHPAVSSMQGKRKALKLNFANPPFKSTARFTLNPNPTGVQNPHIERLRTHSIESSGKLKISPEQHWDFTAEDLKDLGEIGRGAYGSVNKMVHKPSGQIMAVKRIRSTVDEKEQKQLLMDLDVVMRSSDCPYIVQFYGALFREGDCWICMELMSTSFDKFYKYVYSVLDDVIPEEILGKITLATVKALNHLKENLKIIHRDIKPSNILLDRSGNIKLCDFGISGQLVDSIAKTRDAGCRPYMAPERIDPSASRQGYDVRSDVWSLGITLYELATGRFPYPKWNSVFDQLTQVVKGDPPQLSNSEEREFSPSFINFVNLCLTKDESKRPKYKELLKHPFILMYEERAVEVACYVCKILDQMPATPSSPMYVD
Sequence of UniProt O94804 (whole entry, looked up): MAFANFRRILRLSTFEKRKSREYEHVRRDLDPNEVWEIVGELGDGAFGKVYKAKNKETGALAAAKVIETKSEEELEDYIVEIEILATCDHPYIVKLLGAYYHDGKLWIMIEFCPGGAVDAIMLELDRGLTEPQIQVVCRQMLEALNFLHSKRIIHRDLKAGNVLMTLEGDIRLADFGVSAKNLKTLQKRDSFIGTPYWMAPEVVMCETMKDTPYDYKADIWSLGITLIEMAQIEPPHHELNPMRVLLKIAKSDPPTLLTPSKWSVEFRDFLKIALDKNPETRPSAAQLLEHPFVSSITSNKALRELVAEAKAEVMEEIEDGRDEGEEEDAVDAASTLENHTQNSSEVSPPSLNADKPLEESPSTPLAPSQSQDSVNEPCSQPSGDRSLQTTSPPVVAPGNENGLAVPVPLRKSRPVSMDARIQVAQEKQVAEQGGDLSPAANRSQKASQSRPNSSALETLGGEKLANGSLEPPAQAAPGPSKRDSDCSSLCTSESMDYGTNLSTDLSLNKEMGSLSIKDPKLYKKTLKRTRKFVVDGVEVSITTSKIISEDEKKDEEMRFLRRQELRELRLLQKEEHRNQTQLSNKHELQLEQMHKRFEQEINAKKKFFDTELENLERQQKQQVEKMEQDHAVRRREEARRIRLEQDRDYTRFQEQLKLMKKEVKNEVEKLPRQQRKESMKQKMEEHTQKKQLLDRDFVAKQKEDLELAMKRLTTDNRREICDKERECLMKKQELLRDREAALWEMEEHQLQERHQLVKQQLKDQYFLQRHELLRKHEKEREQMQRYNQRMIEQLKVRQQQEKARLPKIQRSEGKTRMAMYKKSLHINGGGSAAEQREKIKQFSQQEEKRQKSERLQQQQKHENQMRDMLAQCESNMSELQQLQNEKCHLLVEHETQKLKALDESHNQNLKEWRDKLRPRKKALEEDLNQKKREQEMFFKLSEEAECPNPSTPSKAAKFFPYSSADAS
Sequence of UniProt Q9H2K8 (whole entry, looked up): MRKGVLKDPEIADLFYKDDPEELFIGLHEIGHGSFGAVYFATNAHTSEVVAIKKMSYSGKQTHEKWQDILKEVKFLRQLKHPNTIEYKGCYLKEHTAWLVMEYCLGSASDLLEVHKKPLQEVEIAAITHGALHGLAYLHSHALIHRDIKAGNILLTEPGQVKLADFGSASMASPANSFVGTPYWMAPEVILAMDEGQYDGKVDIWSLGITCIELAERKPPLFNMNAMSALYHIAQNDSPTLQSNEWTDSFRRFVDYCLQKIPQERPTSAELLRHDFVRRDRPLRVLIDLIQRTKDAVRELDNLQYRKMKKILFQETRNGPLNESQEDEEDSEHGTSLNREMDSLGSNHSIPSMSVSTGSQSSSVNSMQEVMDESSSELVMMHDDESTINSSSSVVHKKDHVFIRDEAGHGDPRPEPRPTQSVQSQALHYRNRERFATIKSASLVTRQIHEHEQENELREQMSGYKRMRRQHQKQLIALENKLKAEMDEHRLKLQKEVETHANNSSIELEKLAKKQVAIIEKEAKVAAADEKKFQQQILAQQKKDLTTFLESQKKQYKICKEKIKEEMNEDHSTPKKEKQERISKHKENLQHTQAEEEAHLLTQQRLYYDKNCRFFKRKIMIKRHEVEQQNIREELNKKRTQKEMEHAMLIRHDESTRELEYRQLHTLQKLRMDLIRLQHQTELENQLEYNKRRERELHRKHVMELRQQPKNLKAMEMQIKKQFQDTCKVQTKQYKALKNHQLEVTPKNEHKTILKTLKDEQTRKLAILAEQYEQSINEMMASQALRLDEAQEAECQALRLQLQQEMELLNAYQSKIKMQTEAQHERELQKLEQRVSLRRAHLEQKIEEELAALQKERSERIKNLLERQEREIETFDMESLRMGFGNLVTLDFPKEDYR

Study 1
Compound: CN(C)c1ncnc(-c2ccc3nc(Nc4cc(CN5CCN(C(=O)CC(F)(F)F)CC5)ccn4)[nH]c3c2)c1Cl
Read-out: cell-free assay
Method: competition with immobilised ligand
Concentration: 1 µM
target | remaining binding [%]
SIK2 (Homo sapiens, UniProt Q9H0K1) | 59
MAP2K4 (Homo sapiens, UniProt P45985) | 92
CDC42BPB (Homo sapiens, UniProt Q9Y5S2) | 96
STK10 (Homo sapiens, UniProt O94804) | 54
MARK4 (Homo sapiens, UniProt Q96L34) | 100
MET (Homo sapiens, UniProt P08581, M1250T) | 70
CSNK1A1L (Homo sapiens, UniProt Q8N752) | 94
TAOK3 (Homo sapiens, UniProt Q9H2K8) | 33
CDK17 (Homo sapiens, UniProt Q00537) | 100

Study 2
Target: Centromere-binding protein 1, full length, N-terminal tag (CBF1, Saccharomyces cerevisiae, UniProt P17106, residues 1-351)
Sequence of UniProt P17106 (whole entry, looked up): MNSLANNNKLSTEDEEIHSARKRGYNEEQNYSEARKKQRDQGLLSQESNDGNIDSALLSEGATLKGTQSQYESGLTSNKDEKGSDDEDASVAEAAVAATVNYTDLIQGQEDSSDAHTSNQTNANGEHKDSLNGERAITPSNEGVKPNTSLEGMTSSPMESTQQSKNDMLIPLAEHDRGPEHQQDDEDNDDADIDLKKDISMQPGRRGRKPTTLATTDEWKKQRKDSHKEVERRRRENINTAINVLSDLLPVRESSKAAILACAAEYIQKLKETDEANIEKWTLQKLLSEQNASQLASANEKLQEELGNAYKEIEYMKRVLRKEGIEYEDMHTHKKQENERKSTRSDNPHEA
Method: protein-binding microarray
Molecule type: double-stranded DNA, one strand shown
Medium: in vitro
Concentration: 0.8 µM
Setting: whole 60-bp probe, no competitor
Reading: higher = stronger binding
Constant ends, left off below: … GTCTTGATTCGCTTGACGCTGCTG
Sequence | fluorescence intensity [a.u.]
CTATAAAGCACTGATTTGATGTTACCGAACTTTTTC | 516
GAAACAGAAAAACTTAGGGTGACGACTTTTTAATAG | 512
CTAGATCGTCAACAACTCGTGCATATTTTTTTGTTC | 629
GAAGGTGGGAACCACAGCGTGATGCTGACAAATTAG | 660
GAAGGGAAAAATCAACATCAGATCCTCGAGAGTTAG | 506
GAATCGACCGTTTTAGCCGTGATCATTATCCTATAG | 646
CTAACTATCGTTAATGCCGTGGCATTGGCTATGTTC | 505
GAAAAGACGACAAACTACCACATGAAGTGGCGGTAG | 490

Study 3
Target: Discoidin domain-containing receptor 2 (DDR2, Homo sapiens, UniProt Q16832)
Sequence of UniProt Q16832 (whole entry, looked up): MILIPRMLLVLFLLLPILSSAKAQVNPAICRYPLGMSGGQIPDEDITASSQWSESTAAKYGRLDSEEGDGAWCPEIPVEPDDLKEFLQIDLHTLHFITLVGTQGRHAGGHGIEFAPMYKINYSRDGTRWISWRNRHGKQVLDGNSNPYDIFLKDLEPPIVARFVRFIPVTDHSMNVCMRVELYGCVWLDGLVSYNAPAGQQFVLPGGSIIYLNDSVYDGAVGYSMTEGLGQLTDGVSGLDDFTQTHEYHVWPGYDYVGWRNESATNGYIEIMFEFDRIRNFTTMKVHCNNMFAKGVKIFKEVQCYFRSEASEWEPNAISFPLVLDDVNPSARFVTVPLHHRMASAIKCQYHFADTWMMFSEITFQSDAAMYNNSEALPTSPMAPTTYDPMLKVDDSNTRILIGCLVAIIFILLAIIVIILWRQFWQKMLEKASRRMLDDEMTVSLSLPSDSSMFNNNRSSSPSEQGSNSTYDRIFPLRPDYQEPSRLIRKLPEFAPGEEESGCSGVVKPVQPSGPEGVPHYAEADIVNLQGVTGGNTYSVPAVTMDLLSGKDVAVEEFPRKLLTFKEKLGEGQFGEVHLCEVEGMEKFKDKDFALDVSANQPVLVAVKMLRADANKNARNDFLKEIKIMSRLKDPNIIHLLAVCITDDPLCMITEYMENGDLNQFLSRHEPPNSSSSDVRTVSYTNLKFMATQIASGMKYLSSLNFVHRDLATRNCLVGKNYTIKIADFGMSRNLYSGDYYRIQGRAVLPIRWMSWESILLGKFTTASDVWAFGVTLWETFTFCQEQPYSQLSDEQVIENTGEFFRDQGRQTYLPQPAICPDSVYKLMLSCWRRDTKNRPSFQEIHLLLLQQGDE
Read-out: enzyme activity
Action: inhibitor
Concentration: 0.5 µM
Relative to: control
Structure (SMILES) | remaining activity [%]
Cc1nc(-c2ccccc2)c(-c2ccncc2)o1 | 97.4
COc1ccc(C(=O)Nc2sc3c(c2C(N)=O)CCCC3)cc1OC | 102
Oc1ccc(-c2nc(-c3ccncc3)c(-c3ccc(F)cc3)[nH]2)cc1 | 86.3
O=S(=O)(c1cccc2cnccc12)N1CCCNCC1 | 92.2
COc1cc2ncnc(Nc3ccc(F)c(Cl)c3)c2cc1OCCCN1CCOCC1 | 117
CNC(=O)c1cc(Oc2ccc(NC(=O)Nc3ccc(Cl)c(C(F)(F)F)c3)cc2)ccn1 | 3.41
NCCNc1ncc(C(N)=O)c(Nc2cccc(C(F)(F)F)c2)n1 | 96.7
COc1ccc(CNC(=O)Nc2ncc([N+](=O)[O-])s2)cc1 | 100
O=C1NC(=O)C(c2cn(CCCn3ccnc3)c3ccccc23)=C1Nc1ccccc1 | 95.6
Cn1c2ccccc2c2c3c(c4c5ccccc5n(CCC#N)c4c21)CNC3=O | 73.3
O=C(Nc1cccc(Nc2cc(Nc3cccc(C(F)(F)F)c3)ncn2)c1)C1CC1 | 106
COc1cc2ncnc(Nc3ccc(Oc4ccccc4)cc3)c2cc1OC | 97.9

Study 4
Target: ATP-dependent RNA helicase DDX3X, helicase core (DDX3X, Homo sapiens, UniProt O00571, residues 132-607)
Sequence of UniProt O00571 (132-607, looked up): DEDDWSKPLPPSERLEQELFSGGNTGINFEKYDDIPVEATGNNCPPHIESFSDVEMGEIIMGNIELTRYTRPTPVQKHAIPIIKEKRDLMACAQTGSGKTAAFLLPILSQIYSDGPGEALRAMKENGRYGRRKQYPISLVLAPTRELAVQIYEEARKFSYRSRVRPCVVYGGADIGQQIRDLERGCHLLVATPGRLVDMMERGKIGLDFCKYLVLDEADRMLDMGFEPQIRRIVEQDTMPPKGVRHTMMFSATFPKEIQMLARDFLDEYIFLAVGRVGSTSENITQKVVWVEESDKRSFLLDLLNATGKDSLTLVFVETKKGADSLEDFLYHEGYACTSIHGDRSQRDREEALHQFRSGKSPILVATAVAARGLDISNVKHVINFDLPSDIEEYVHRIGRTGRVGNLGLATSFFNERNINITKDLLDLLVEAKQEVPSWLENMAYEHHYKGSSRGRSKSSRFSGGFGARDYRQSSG
Method: RNA Bind-n-Seq
Molecule type: RNA
Medium: in vitro
Concentration: not given
Setting: 4-mer, random 30-nt RNA, single round
Together with: RocA, ADP, phosphate
Relative to: input library
Reading: higher = stronger binding
Sequence | 4-mer enrichment [fold]
GGGA | 1.94
UCAA | 0.754
GCGG | 1.01
UUAC | 0.725
GUGA | 1.43
AGAG | 1.86
GUCC | 0.892
CAGG | 0.998

Some of these lines once more (study 4):
Sequence | 4-mer enrichment [fold]
UCAA | 0.754
GCGG | 1.01
UUAC | 0.725
GUGA | 1.43
AGAG | 1.86
